Measurements from different studies.
Compare with care: the assays were run in different laboratories.

Structure (SMILES)	cell line	effect on	method	concentration	time	relative to	viability
Cc1ccccc1C(c1c[nH]c(=O)[nH]c1=O)c1c[nH]c(=O)[nH]c1=O	Ba/F3	–	–	1 µg/mL	24 h	–	> 90%
O=C(Nc1ccc(Oc2ccc(F)cc2)cc1)c1cc2ccc(Cl)cc2s1	C2C12 differentiated myotubes	–	–	10 µM	72 h	–	76%
C=CCc1ccc(OC(=O)CSc2nnc([C@]3(C)C4CC[C@]5(C)C(C(=O)C=C6C7[C@@H](C)[C@H](C)CC[C@]7(C)CC[C@]65C)[C@@]4(C)CC[C@H]3OC(C)=O)o2)c(OC)c1 (some centres unmarked)	HepG2	cell growth or viability	MTT	25 µM	24 h	–	87%
CC(C)=CCc1c(O)cc2c(c1O)C(=O)OC2	HepG2	cell growth or viability	CCK-8	50 µM	24 h	–	75.3%
CCCC[C@@H]1NC(=O)[C@@H](CC(C)C)NC(=O)[C@H](CCCCN)NC(=O)NNC(=O)[C@H](Cc2c[nH]cn2)NC(=O)[C@@H](Cc2c[nH]c3ccccc23)NC1=O	PC-12	–	MTT	up to 100 µM	–	–	not toxic
COc1ccc([C@@H]2CC(=O)c3c(O)cc(O[C@@H]4O[C@H](CO[C@@H]5O[C@@H](C)[C@H](O)[C@@H](O)[C@H]5O)[C@@H](O)[C@H](O)[C@H]4O)cc3O2)cc1O	MRC5	cell growth or viability	MTS	50 µg/mL	24 h	–	88.7%
O=C(Nc1ccc(OCCN2CCCC2)cc1)c1cc2ccc(Cl)cc2s1	C2C12 differentiated myotubes	–	–	100 µM	72 h	–	2%
OCC1CSC(c2ccc(O)cc2O)S1 (centres unmarked)	B16-F10	–	MTT	10 µM	24 h	untreated	98.4%
O=c1[nH]cc(C(c2cccc(C(F)(F)F)c2)c2c[nH]c(=O)[nH]c2=O)c(=O)[nH]1	Ba/F3	–	–	5 µg/mL	24 h	–	> 90%
CC1=CC(OC(=O)c2ccccc2)C2(COC(=O)c3ccccc3)CCC(=C(C)C)C2C(O)CC2(C)OC2CC1 (centres unmarked)	HepG2	cell growth or viability	CCK-8	10 µM	24 h	–	97.3%
CC(C)=CCN=C(N)NCCC[C@@H](NC(=O)CCCc1ccc(O)cc1)C(=O)N[C@@H](Cc1ccccc1)C(O)CC(=O)N[C@@H](Cc1ccc(O)cc1)C(=O)O (stereo in doubt)	U-87 MG	–	alamarBlue	5 µM	20 h	DMSO vehicle	no effect
O=c1[nH]cc(C(c2ccc(Cl)cc2)c2c[nH]c(=O)[nH]c2=O)c(=O)[nH]1	Ba/F3	–	–	5 µg/mL	24 h	–	> 90%
COc1cc([C@@H]2OC[C@@H]3[C@H]2CO[C@H]3c2cc(OC)c(O)c(OC)c2)cc(OC)c1O	HepG2	cell growth or viability	CCK-8	10 µM	24 h	–	94.5%
O=c1[nH]cc(C(c2cccc(Cl)c2)c2c[nH]c(=O)[nH]c2=O)c(=O)[nH]1	Ba/F3	–	–	1 µg/mL	24 h	–	> 90%
C[C@@H]1O[C@@H](O[C@H]2[C@H](O[C@H]3CC[C@@]4(C)C(CC[C@]5(C)C4CC=C4C6CC(C)(C)CC[C@]6(C(=O)O[C@@H]6O[C@H](CO)[C@@H](O)[C@H](O)[C@H]6O)CC[C@]45C)[C@]3(C)CO)OC[C@H](O)[C@@H]2O)[C@H](O)[C@H](O[C@@H]2OC[C@@H](O)[C@H](O)[C@H]2O)[C@H]1O (some centres unmarked)	HepG2	cell growth or viability	CCK-8	20 µM	24 h	–	92.2%
O=c1[nH]cc(C(c2ccccc2Br)c2c[nH]c(=O)[nH]c2=O)c(=O)[nH]1	Ba/F3	–	–	5 µg/mL	24 h	–	> 90%
CC(C)=CCc1c(O)cc(CO)cc1O	HepG2	cell growth or viability	CCK-8	40 µM	24 h	–	78.2%

Excerpt of the above:
Structure (SMILES)	cell line	effect on	method	concentration	time	relative to	viability
CC(C)=CCc1c(O)cc2c(c1O)C(=O)OC2	HepG2	cell growth or viability	CCK-8	50 µM	24 h	–	75.3%
O=c1[nH]cc(C(c2cccc(Cl)c2)c2c[nH]c(=O)[nH]c2=O)c(=O)[nH]1	Ba/F3	–	–	1 µg/mL	24 h	–	> 90%
O=c1[nH]cc(C(c2cccc(C(F)(F)F)c2)c2c[nH]c(=O)[nH]c2=O)c(=O)[nH]1	Ba/F3	–	–	5 µg/mL	24 h	–	> 90%
